Experimental data from different studies.
Several values in a cell are separate wells, animals, samples, runs or records. Numbers after ± are the reported error.

MKDLSPRWYFYYLGT — responding donors (human CD4 T cells; AIM; peptide): 14%
COc1ccc2cc3[n+](cc2c1OC)CCc1cc2c(cc1-3)OCO2 — inhibition (SARS-CoV-2 spike protein; Vero C1008; 2.5 µg/mL): 80 ± 0.8%
C=CC/C=C\C=C/[C@H]1O[C@H]2C[C@H]3O[C@H]4CC[C@H]5O[C@H]6C[C@@]7(C)O[C@@]8(C)[C@@H](O)C[C@H](CCCO)O[C@@H]8C[C@@H]7O[C@@H]6C[C@@H]5O[C@]4(C)C[C@]3(C)O[C@@H]2C=C[C@]1(C)O — IC50 (Kv3.1-Kv2.1 chimera; potassium current, inhibitor, patch clamp; Ltk- cells): 2.4 ± 0.2 nM
Cc1cccn2c(CC(=O)NCc3cc(-c4ccco4)on3)cnc12 — remaining activity (Lassa mammarenavirus; viral replication; Huh-7; 10 µM, 72 h): 56%
TDYKHWPQIAQFAPS — responding donors (human CD4 T cells; AIM; peptide): 8%
CC[C@H](C)[C@H](NC(=O)[C@H](C)NC(=O)[C@H](CO)NC(=O)[C@H](CC(=O)O)NC(=O)[C@H](CO)NC(=O)[C@H](Cc1ccccc1)NC(=O)[C@H](CS)NC(=O)[C@H](CC(=O)O)NC(=O)[C@H](Cc1ccccc1)NC(=O)[C@H](Cc1ccc(O)cc1)NC(=O)[C@H](Cc1ccc(O)cc1)NC(=O)[C@H](CC(C)C)NC(=O)[C@H](Cc1c[nH]cn1)NC(=O)[C@@H](NC(=O)[C@H](CC(C)C)NC(=O)[C@H](CCC(N)=O)NC(=O)[C@H](CC(=O)O)NC(=O)[C@H](C)NC(=O)[C@H](CC(C)C)NC(=O)[C@@H](N)CCC(=O)O)[C@@H](C)CC)C(=O)N[C@@H](CCCNC(=N)N)C(=O)N[C@@H](CCCCN)C(=O)N[C@@H](C)C(=O)N[C@@H](CC(C)C)C(=O)N[C@@H](CC(C)C)C(=O)NCC(=O)N[C@@H](Cc1c[nH]cn1)C(=O)N[C@H](C(=O)N[C@H](C(=O)N[C@@H](CO)C(=O)N1CCC[C@H]1C(=O)N[C@@H](CCCNC(=N)N)C(=O)N[C@@H](CS)C(=O)N[C@@H](CCC(=O)O)C(=O)N[C@@H](Cc1ccc(O)cc1)C(=O)N[C@@H](CCC(N)=O)C(=O)N[C@@H](C)C(=O)NCC(=O)N[C@@H](Cc1c[nH]cn1)C(=O)N[C@@H](CC(N)=O)C(=O)N[C@@H](CCCCN)C(=O)N[C@H](C(=O)O)C(C)C)C(C)C)[C@@H](C)CC — bound amount (human Cul5 (1-384) GST fusion; binding, GST pull-down; 20 µM, no zinc; reference: GST): ≥ 7 fold
FVSLAIDAYPLTKHP — responding donors (human CD4 T cells; AIM; peptide): 14%
CCN1CCN(c2cc(C)c3cc(NC(=O)c4cccc(Cl)c4)ccc3n2)CC1 — AC50 (SARS-CoV-2; cytopathic effect, cell-based CPE; USA_WA1/2020; round 1, 5-point dilution): 14100 nM
Cn1c(Cn2ccc(C(F)(F)F)c(Oc3cc(Cl)cc(C#N)c3)c2=O)n[nH]c1=O — EC50 (HIV-1; viral replication, single-round infection; RT mutant V106A/L234I): > 100 nM
YREAACCHLAKALND — responding donors (human CD4 T cells; AIM; peptide): 8%
Cc1nc2n(n1)CC(=O)N[C@@H](C(C)C)CNCC(=O)N[C@@H](CC(C)C)c1nc(cs1)C(=O)N[C@H]2Cc1ccccc1 — remaining activity (Lassa mammarenavirus; viral replication; Huh-7; 10 µM, 72 h): 91%
COc1cc2c(cc1OCC1CC1)NC(=O)C21CCN(c2cc(NC3CC3)ncn2)CC1 — maximum response (SARS-CoV-2; cytopathic effect; USA_WA1/2020; round 1, 5-point): 76.5%
Cc1cc(=O)c2ccccc2n1CC(=O)N1CCC(CCn2cccn2)CC1 — remaining activity (Lassa mammarenavirus; viral replication; Huh-7; 10 µM, 72 h): 33%
O=C1Nc2ccc(Cl)cc2[C@@](C#CC2CC2)(C(F)(F)F)O1 — EC50 (HIV-1; viral replication, single-round infection; RT mutant K101P): 112 ± 13.9 nM
COc1ccc(C[C@@H]2NC(=O)[C@@H](NC(=O)Cc3ccc4c(c3)OCO4)Cc3ccc(cc3)OC[C@H](CC(C)C)NC(=O)CN(CC3CC3)C(=O)[C@@H](C)NC2=O)cc1 — remaining activity (Lassa mammarenavirus; viral replication; Huh-7; 10 µM, 72 h): 31%
CNC(=O)[C@@H](NC(=O)[C@H](CC(C)C)[C@H](O)C(=O)NO)C(C)(C)C — remaining activity (Daboia russelii venom proteases (SVMP); protease activity, inhibitor; KA population; 1 µM, added: azocasein substrate; reference: venom alone): 83.4% and 85.7% and 87.8%
Cc1noc2c(NC3CCOCC3)cc(-c3cccc(C(F)(F)F)c3)nc12 — maximum response (SARS-CoV-2; cytopathic effect; USA_WA1/2020; round 1, 5-point): 41.7%
CC(C)C[C@H]1[C@@H](c2ccccc2)OC(=O)N1CCCN1CCCCCC1.Cl — maximal inhibition (HeLa; Ebola VLP entry): 76%
Cc1cccc(C2CCCN(c3cc(C)nc(N)n3)C2)c1 (stereo not drawn) — remaining activity (Lassa mammarenavirus; viral replication; Huh-7; 10 µM, 72 h): 53%
Cc1cn([C@H]2C[C@H](N=[N+]=[N-])[C@@H](CO)O2)c(=O)[nH]c1=O — EC50 (HIV-1; viral replication; human PBMC, subtype A 92UG029, CXCR4-tropic clinical isolate): 8.88 ± 0.81 nM
c1ccc(Oc2cccc(CN3CCC4(CCNCC4)C3)c2)cc1 — remaining activity (Lassa mammarenavirus; viral replication; Huh-7; 10 µM, 72 h): 46%
Cc1cc(/C=C/C#N)cc(C)c1Nc1ccnc(Nc2ccc(C#N)cc2)n1 — EC50 (HIV-1; viral replication, single-round infection; RT mutant M184V): 0.1 nM
Cc1cnc(NCCN2CCCCCC2)nc1N(C)C — remaining activity (Lassa mammarenavirus; viral replication; Huh-7; 10 µM, 72 h): 43%
CCCC(=O)OCSc1ccccc1C(=O)NCCC(N)=O — EC50 (HIV-1; viral replication; human PBMC, subtype C 98IN017, CXCR4-tropic clinical isolate): 2620 ± 1120 nM
CCCOC(C(=O)OC1CCN(C)CC1)(c1ccccc1)c1ccccc1 — IC50 (HeLa; Ebola VLP entry): 12200 nM
COP(=S)(OC)Oc1ccc([N+](=O)[O-])c(C)c1 — Vmax (rat CYP2D; bufuralol 1'-hydroxylation; liver microsomes; concentration not given): 0.94 ± 0.14 nmol/min/mg protein
Nc1ncnc2c([C@@H]3N[C@H](CO)[C@@H](O)[C@H]3O)c[nH]c12 — antigen-positive cells (Marburg virus; antibody staining; HeLa, Musoke; 12.5 µM): 0.5% and 4%
CCN(CC)CCNC(=O)c1[nH]c2ccccc2c1Sc1ccc(Cl)cc1 — maximum response (SARS-CoV-2; cytopathic effect; USA_WA1/2020; round 2, 5-point): 105%
Cc1cc(/C=C/C#N)cc(C)c1Nc1nc(Nc2ccc(/C=C/C#N)cc2)ncc1N — EC50 (HIV-1; viral replication, single-round infection; RT mutant V106A/L234I): < 2 nM
Cc1ccc(Nc2ccnc(N3CCCC3C(=O)NCCCc3ccccc3)n2)cc1 (stereo not drawn) — efficacy (SARS-CoV-2; cytopathic effect; USA_WA1/2020; round 1, 5-point): 39.9%
FTISVTTEI — positive donors (human PBMC CD8+ T cells; T cell response; peptide): 2 donors
Cn1cc(CN2CCCC(COc3ccccc3C(=O)N3CCCCC3)C2)c2ccccc21 (stereo not drawn) — efficacy (SARS-CoV-2; cytopathic effect; USA_WA1/2020; round 1, 5-point): 92.6%
CCc1c(C(=O)C(N)=O)c2c(OCC(=O)O)cccc2n1Cc1ccccc1 — viability difference (C2C12; 1 µM, added: GA venom; reference: venom alone): 7.99%

Repeated from above:
C=CC/C=C\C=C/[C@H]1O[C@H]2C[C@H]3O[C@H]4CC[C@H]5O[C@H]6C[C@@]7(C)O[C@@]8(C)[C@@H](O)C[C@H](CCCO)O[C@@H]8C[C@@H]7O[C@@H]6C[C@@H]5O[C@]4(C)C[C@]3(C)O[C@@H]2C=C[C@]1(C)O — IC50 (Kv3.1-Kv2.1 chimera; potassium current, inhibitor, patch clamp; Ltk- cells): 2.4 ± 0.2 nM
Cc1nc2n(n1)CC(=O)N[C@@H](C(C)C)CNCC(=O)N[C@@H](CC(C)C)c1nc(cs1)C(=O)N[C@H]2Cc1ccccc1 — remaining activity (Lassa mammarenavirus; viral replication; Huh-7; 10 µM, 72 h): 91%
Cc1cc(=O)c2ccccc2n1CC(=O)N1CCC(CCn2cccn2)CC1 — remaining activity (Lassa mammarenavirus; viral replication; Huh-7; 10 µM, 72 h): 33%
TDYKHWPQIAQFAPS — responding donors (human CD4 T cells; AIM; peptide): 8%
